Results gathered from unrelated publications.
Each line is one published result; not all experiments were run side by side. Numbers after ± are the reported error.

CC[C@H](C)[C@H](NC(=O)CNC(=O)[C@H](CCSC)NC(=O)[C@H](CCC(N)=O)NC(=O)[C@H](C)NC(=O)[C@H](CCC(N)=O)NC(=O)[C@@H](NC(=O)[C@H](CC(C)C)NC(=O)[C@H](C)NC(=O)[C@H](CO)NC(=O)[C@H](CCSC)NC(=O)[C@H](CCC(=O)O)NC(=O)[C@H](CC(C)C)NC(=O)[C@H](Cc1ccc(O)cc1)NC(=O)[C@H](CO)NC(=O)[C@H](CCC(=O)O)NC(=O)[C@H](CCC(N)=O)NC(=O)[C@H](CCCNC(=N)N)NC(=O)[C@H](CCCCN)NC(=O)[C@H](CC(=O)O)NC(=O)[C@H](CC(C)C)NC(=O)[C@H](CC(N)=O)NC(=O)[C@H](Cc1ccccc1)NC(=O)[C@H](CCC(=O)O)NC(=O)[C@H](CCCCN)NC(=O)[C@@H](NC(=O)[C@H](CC(C)C)NC(=O)[C@H](CCC(=O)O)NC(=O)[C@H](CCC(=O)O)NC(=O)[C@@H](NC(=O)[C@@H](NC(=O)[C@H](CCCNC(=N)N)NC(=O)[C@H](CCCCN)NC(=O)[C@H](C)NC(=O)[C@H](Cc1ccccc1)NC(=O)[C@H](CCC(=O)O)NC(=O)[C@H](CCC(=O)O)NC(=O)[C@H](CC(C)C)NC(=O)[C@@H](N)CO)C(C)C)C(C)C)C(C)C)[C@@H](C)CC)C(=O)N[C@@H](CO)C(=O)N[C@@H](CCC(=O)O)C(=O)N[C@@H](CCCNC(=N)N)C(=O)N[C@H](C(=O)N[C@H](C(=O)N[C@@H](CCC(=O)O)C(=O)N[C@H](C(=O)N[C@H](C(=O)N[C@@H](CC(C)C)C(=O)N[C@@H](CCCNC(=N)N)C(=O)N[C@@H](Cc1c[nH]cn1)C(=O)N[C@@H](C)C(=O)N[C@@H](C)C(=O)N[C@@H](CCC(N)=O)C(=O)N[C@H](C(=O)N[C@@H](CC(C)C)C(=O)N[C@@H](CCCCN)C(=O)O)[C@@H](C)O)C(C)C)[C@@H](C)CC)[C@@H](C)CC)[C@@H](C)CC — AUC(0-inf) (male mouse, plasma; intravenous, 1 mg/kg): 25600 ng·h/mL
O=C1NC2(CC2)COc2ncc(F)cc2[C@H]2COCCN2c2ccn3ncc1c3n2 — APTT (Sprague-Dawley rats, male, blood; oral, 20 mg/kg/day, end of recovery, 4-week subacute toxicity): 16.5 ± 1.4 s
CC[C@H](C)[C@H](NC(=O)CNC(=O)[C@H](CC(C)C)NC(=O)[C@H](Cc1ccccc1)NC(=O)CN)C(=O)N[C@@H](CC(C)C)C(=O)N[C@@H](Cc1ccccc1)C(=O)N[C@@H](Cc1c[nH]cn1)C(=O)NCC(=O)N[C@H](C(=O)N[C@@H](Cc1c[nH]cn1)C(=O)N[C@@H](Cc1c[nH]cn1)C(=O)NCC(=O)N[C@@H](CCCNC(=N)N)C(=O)N[C@@H](CCCCN)C(=O)N[C@@H](CCCCN)C(=O)N[C@@H](C)C(=O)N[C@@H](CC(C)C)C(=O)N[C@@H](Cc1c[nH]cn1)C(=O)N[C@@H](CCSC)C(=O)N[C@@H](CC(N)=O)C(=O)N[C@@H](CO)C(=O)N[C@@H](CCC(=O)O)C(=O)N[C@@H](CCCNC(=N)N)C(=O)N[C@@H](CCCNC(=N)N)C(=O)N[C@@H](CO)C(=O)O)C(C)C — chronic toxic concentration (zebrafish embryos 28 hpf, E3 medium; 24 h): 25 µM
CSCC[C@H](NC(=O)CNC(=O)[C@H](CCCCN)NC(=O)[C@H](CC(C)C)NC(=O)[C@@H]1CCCN1C(=O)[C@H](CO)NC(=O)[C@H](Cc1c[nH]cn1)NC(=O)[C@H](Cc1c[nH]c2ccccc12)NC(=O)[C@H](CCCNC(=N)N)NC(=O)[C@H](CC(C)C)NC(=O)[C@H](CCCNC(=N)N)NC(=O)[C@H](Cc1c[nH]c2ccccc12)NC(=O)[C@H](CS)NC(=O)CCCCCNC(=O)CN1CCN(CC(=O)O)CCN(CC(=O)O)CCN(CC(=O)O)CC1)C(=O)O [copper-64 labelled] — tissue uptake (ex vivo biodistribution; C57BL/6J mice bearing B16-F10 tumours, lung; intravenous, 1.85 MBq, 30 h): 4.92 %ID/g
CCCCCCCCCCCCCCCC(=O)N[C@@H](CCC(=O)NCCOCCOCCC(=O)NCCOCCOCCC(=O)NCCCC[C@H](NC(=O)[C@H](CC(=O)O)NC(=O)[C@H](CC(C)C)NC(=O)[C@H](Cc1ccc(O)cc1)NC(=O)[C@H](CCCCN)NC(=O)[C@H](CO)NC(=O)[C@H](Cc1ccc(O)cc1)NC(=O)[C@H](CC(=O)O)NC(=O)[C@H](CO)NC(=O)[C@@H](NC(=O)[C@H](Cc1ccccc1)NC(=O)[C@@H](NC(=O)CNC(=O)[C@H](CCC(N)=O)NC(=O)[C@@H](CO)NC(=O)[C@@H](N)Cc1c[nH]cn1)[C@@H](C)O)[C@@H](C)O)C(=O)N[C@@H](CCCNC(=N)N)C(=O)N[C@@H](CCCNC(=N)N)C(=O)N[C@@H](C)C(=O)N[C@@H](CCC(N)=O)C(=O)N[C@@H](CC(=O)O)C(=O)N[C@@H](Cc1ccccc1)C(=O)N[C@H](C(=O)N[C@@H](CCC(N)=O)C(=O)N[C@@H](Cc1c[nH]c2ccccc12)C(=O)N[C@@H](CC(C)C)C(=O)N[C@@H](CC(C)C)C(=O)N[C@@H](CC(N)=O)C(=O)N[C@H](C(=O)NCC(=O)NCC(=O)N1CCC[C@H]1C(=O)N[C@@H](CO)C(=O)N[C@@H](CO)C(=O)NCC(=O)N[C@@H](C)C(=O)N1CCC[C@H]1C(=O)N1CCC[C@H]1C(=O)N1CCC[C@H]1C(=O)N[C@@H](CO)C(N)=O)[C@@H](C)O)C(C)C)C(=O)O — Cmax (rhesus monkey, plasma; subcutaneous, 60 µg/kg, single dose): 43.4 ng/mL
CCCCCCCC(=O)NCCCC[C@H](NC(=O)CCCCCCC)C(=O)N[C@@H](CCCCNC(=O)CCCCCCC)C(=O)NCC(=O)NCC(=O)NCC(=O)N[C@@H](CS)C(=O)N[C@@H](CCCNC(=N)N)C(=O)N[C@@H](CCCCN)C(=O)N1CCC[C@H]1C(=O)N[C@@H](CS)C(=O)N[C@@H](CCCNC(=N)N)C(=O)N[C@@H](CCCCN)C(=O)N1CCC[C@H]1C(=O)N[C@@H](CS)C(=O)N[C@@H](CCCNC(=N)N)C(=O)N[C@@H](CCCCN)C(=O)N1CCC[C@H]1C(N)=O — assembly diameter (TEM; phosphate buffer; 64 µM, overnight): 7.97 ± 0.14 nm
CC(C)[C@H](NC(=O)[C@@H](NC(=O)[C@H](CCCNC(=N)N)NC(=O)[C@H](CCCNC(=N)N)NC(=O)[C@H](CCCNC(=N)N)NC(=O)[C@H](CCC(N)=O)NC(=O)[C@H](CCCNC(=N)N)NC(=O)[C@H](CCCNC(=N)N)NC(=O)[C@H](CCCCN)NC(=O)[C@H](CCCCN)NC(=O)[C@H](CCCNC(=N)N)NC(=O)CN)[C@@H](C)O)C(=O)N[C@H](C(=O)N[C@@H](CO)C(=O)N1CCC[C@H]1C(=O)O)[C@@H](C)O — organ weight (ICR mice, male, liver; intranasal, 20 mg/kg daily, 4 weeks): 1.7 ± 0.091 g
CC[C@H](C)[C@H](NC(=O)[C@H](C)NC(=O)[C@H](CCCCN)NC(=O)[C@H](CC(C)C)NC(=O)[C@@H](N)Cc1ccccc1)C(=O)N[C@@H](CCCCN)C(=O)N[C@@H](CCCCN)C(=O)N[C@@H](Cc1ccccc1)C(=O)NCC(=O)N[C@@H](CCCCN)C(=O)N[C@@H](CCC(=O)O)C(=O)N[C@@H](Cc1ccccc1)C(=O)N[C@@H](CCCCN)C(=O)N[C@@H](CCCCN)C(=O)N[C@H](C(=O)NCC(=O)N[C@@H](C)C(=O)N[C@@H](CCCCN)C(=O)N[C@@H](CC(C)C)C(=O)N[C@@H](CCCCN)C(=O)O)[C@@H](C)CC — hemolysis (human red blood cells; 32 mg/L, 1 h, mean of replicates): 0.511%
N#[11C]c1ccc(-c2csc(NN=C3CCCC3)n2)cc1 — radioactivity uptake (C57BL/6 mice, male, brain; intravenous, 3 MBq, 60 min): 0.31 ± 0.09 %ID/g
CSCC[C@H](N)C(=O)N[C@@H](C)C(=O)N[C@@H](CCCNC(=N)N)C(=O)N[C@@H](CCCNC(=N)N)C(=O)N[C@@H](CC(=O)O)C(=O)N[C@@H](CCCCN)C(=O)N[C@H](C(=O)N[C@@H](CC(=O)O)C(=O)N[C@@H](Cc1ccccc1)C(=O)N[C@@H](C)C(=O)N[C@@H](CCCNC(=N)N)C(=O)N[C@@H](CCCNC(=N)N)C(=O)N[C@@H](CCCNC(=N)N)C(=O)N[C@@H](CCCNC(=N)N)C(=O)NCCCCCC(=O)NCCCCC(NC(=O)CCCCCNC(=O)[C@H](CCCNC(=N)N)NC(=O)[C@H](CCCNC(=N)N)NC(=O)[C@H](CCCNC(=N)N)NC(=O)[C@H](CCCNC(=N)N)NC(=O)[C@H](C)NC(=O)[C@H](Cc1ccccc1)NC(=O)[C@H](CC(=O)O)NC(=O)[C@@H](NC(=O)[C@H](CCCCN)NC(=O)[C@H](CC(=O)O)NC(=O)[C@H](CCCNC(=N)N)NC(=O)[C@H](CCCNC(=N)N)NC(=O)[C@H](C)NC(=O)[C@@H](N)CCSC)[C@@H](C)O)C(=O)NCCCCC(NC(=O)C(CCCCNC(=O)CCCCCNC(=O)[C@H](CCCNC(=N)N)NC(=O)[C@H](CCCNC(=N)N)NC(=O)[C@H](CCCNC(=N)N)NC(=O)[C@H](CCCNC(=N)N)NC(=O)[C@H](C)NC(=O)[C@H](Cc1ccccc1)NC(=O)[C@H](CC(=O)O)NC(=O)[C@@H](NC(=O)[C@H](CCCCN)NC(=O)[C@H](CC(=O)O)NC(=O)[C@H](CCCNC(=N)N)NC(=O)[C@H](CCCNC(=N)N)NC(=O)[C@H](C)NC(=O)[C@@H](N)CCSC)[C@@H](C)O)NC(=O)CCCCCNC(=O)[C@H](CCCNC(=N)N)NC(=O)[C@H](CCCNC(=N)N)NC(=O)[C@H](CCCNC(=N)N)NC(=O)[C@H](CCCNC(=N)N)NC(=O)[C@H](C)NC(=O)[C@H](Cc1ccccc1)NC(=O)[C@H](CC(=O)O)NC(=O)[C@@H](NC(=O)[C@H](CCCCN)NC(=O)[C@H](CC(=O)O)NC(=O)[C@H](CCCNC(=N)N)NC(=O)[C@H](CCCNC(=N)N)NC(=O)[C@H](C)NC(=O)[C@@H](N)CCSC)[C@@H](C)O)C(N)=O)[C@@H](C)O (stereo partly drawn) — mean tissue distribution (C57BL/6 mouse female, heart; dose not given, 3 h; reference: total): 0.66%
COc1ccccc1-c1n[nH]c2nc(NC3CCN(C(=O)Cc4ccc(F)cc4F)CC3)ncc12 — relative abundance (bead binding, competition bead pull-down, measured: LINJ.31.2210; Leishmania donovani axenic amastigote extract; 10 µM; reference: vehicle): 1.09
[2H]C([2H])([18F])[C@]([2H])(N)C(=O)O — maximum bone uptake (PET; athymic nude mouse; 90 min): ~26%
COc1ccc(CNc2ccc3c(c2)S(=O)(=O)C=C3)cc1 — spleen weight (male C57BL/6 mice; i.p., 20 mg/kg, day 8, repeated dosing): 0.179 g
CC(C)C[C@@H](NC(=O)[C@@H](CCCNC(=N)N)NC(=O)[C@@H](Cc1c[nH]cn1)NC(=O)[C@@H](Cc1c[nH]c2ccccc12)NC(=O)[C@@H](Cc1c[nH]cn1)NC(=O)[C@@H](Cc1ccccc1)NC(=O)[C@H](NC(=O)[C@@H](Cc1ccc(O)cc1)NC(=O)CNC(=O)CNC(=O)CCOCCOCCOCCNC(=O)CN1CCN(CC(=O)O)CCN(CC(=O)O)CC1)[C@H](C)O)C(=O)N[C@H](CC(N)=O)C(=O)N1CCC[C@@H]1C(=O)O [gallium-68 labelled] — tissue uptake (gamma counting; C57BL/6 mice, male, tumor; intravenous, 1.85 MBq, 30 min): 2.68 ± 0.34 %ID/g
N=C(N)NCCC[C@H](NC(=O)[C@H](CCCNC(=N)N)NC(=O)[C@H](CCCNC(=N)N)NC(=O)[C@H](CCC(N)=O)NC(=O)[C@H](CCCNC(=N)N)NC(=O)[C@H](CCCNC(=N)N)NC(=O)[C@H](CCCCN)NC(=O)[C@H](CCCCN)NC(=O)[C@H](CCCNC(=N)N)NC(=O)CNC(=O)[C@H](Cc1ccc(O)cc1)NC(=O)[C@H](Cc1ccccc1)NC(=O)[C@H](Cc1ccccc1)NC(=O)[C@H](Cc1ccccc1)NC(=O)Cc1ccc2ccccc2c1)C(=O)O — health score (C57BL/6 mice; intraperitoneal, 5 mg/kg, 2 h; direction not given): 5

Some of these lines once more:
CC[C@H](C)[C@H](NC(=O)[C@H](C)NC(=O)[C@H](CCCCN)NC(=O)[C@H](CC(C)C)NC(=O)[C@@H](N)Cc1ccccc1)C(=O)N[C@@H](CCCCN)C(=O)N[C@@H](CCCCN)C(=O)N[C@@H](Cc1ccccc1)C(=O)NCC(=O)N[C@@H](CCCCN)C(=O)N[C@@H](CCC(=O)O)C(=O)N[C@@H](Cc1ccccc1)C(=O)N[C@@H](CCCCN)C(=O)N[C@@H](CCCCN)C(=O)N[C@H](C(=O)NCC(=O)N[C@@H](C)C(=O)N[C@@H](CCCCN)C(=O)N[C@@H](CC(C)C)C(=O)N[C@@H](CCCCN)C(=O)O)[C@@H](C)CC — hemolysis (human red blood cells; 32 mg/L, 1 h, mean of replicates): 0.511%
N#[11C]c1ccc(-c2csc(NN=C3CCCC3)n2)cc1 — radioactivity uptake (C57BL/6 mice, male, brain; intravenous, 3 MBq, 60 min): 0.31 ± 0.09 %ID/g
